Measurements gathered from unrelated publications.
Numbered parts are unrelated; each lists some results of a single study. Changes are numbered by the printed parent chain.

Set 1
Target: UDP-N-acetylglucosamine--peptide N-acetylglucosaminyltransferase 110 kDa subunit (OGT, Homo sapiens, UniProt O15294)
Sequence of UniProt O15294 (whole entry, looked up): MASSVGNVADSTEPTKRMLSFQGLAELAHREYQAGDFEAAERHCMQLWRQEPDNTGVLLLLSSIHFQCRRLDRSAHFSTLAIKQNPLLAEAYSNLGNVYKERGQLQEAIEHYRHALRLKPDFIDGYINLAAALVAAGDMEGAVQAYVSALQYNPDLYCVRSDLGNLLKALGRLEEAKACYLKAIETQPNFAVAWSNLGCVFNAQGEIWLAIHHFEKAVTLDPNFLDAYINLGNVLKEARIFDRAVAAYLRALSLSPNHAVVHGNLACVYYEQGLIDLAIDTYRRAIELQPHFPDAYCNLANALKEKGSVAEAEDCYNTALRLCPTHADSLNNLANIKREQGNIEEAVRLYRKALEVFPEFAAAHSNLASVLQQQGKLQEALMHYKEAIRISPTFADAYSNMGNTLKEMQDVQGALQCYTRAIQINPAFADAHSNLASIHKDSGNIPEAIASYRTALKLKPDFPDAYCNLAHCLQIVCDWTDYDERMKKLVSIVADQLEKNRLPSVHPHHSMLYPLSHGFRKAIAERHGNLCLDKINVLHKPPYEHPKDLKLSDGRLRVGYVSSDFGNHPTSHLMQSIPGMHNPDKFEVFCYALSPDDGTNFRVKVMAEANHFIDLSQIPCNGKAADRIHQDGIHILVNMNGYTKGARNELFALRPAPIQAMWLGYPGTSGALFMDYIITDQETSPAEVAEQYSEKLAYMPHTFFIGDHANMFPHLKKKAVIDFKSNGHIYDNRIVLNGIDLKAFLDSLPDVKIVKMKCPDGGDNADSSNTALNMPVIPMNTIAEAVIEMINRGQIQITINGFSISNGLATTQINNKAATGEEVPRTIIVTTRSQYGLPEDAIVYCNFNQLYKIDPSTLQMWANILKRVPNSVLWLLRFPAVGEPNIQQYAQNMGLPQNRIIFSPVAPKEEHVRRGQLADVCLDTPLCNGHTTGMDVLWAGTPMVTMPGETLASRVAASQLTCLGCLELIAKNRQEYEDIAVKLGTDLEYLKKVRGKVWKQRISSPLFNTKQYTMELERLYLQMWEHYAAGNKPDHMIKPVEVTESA
Observed: binding
Technique: phage display NGS
Form: peptide
Concentration: concentration not given
Setting: panning round 2
Baseline: input library
Sequence | enrichment fold change
MWFPPVYSIQYDLI | 11.1
HYFPTYMKHHVNFTD | 4.23
GGNEEFKPFYQIFMP | 5.31
DEHMIPNHHHHFTIE | 5.82
HNRHMHQHSHYMADT | 6.1
DYAQFMPKYLIKQYE | 7.21
IPNYIHMTHYHQHAH | 6.97
HTYEQHWTHEIWHLA | 4.91

Set 2
Target: tungstate, free oxyanion
Technique: microfluidic competitive inhibition
Medium: in vitro, cell-free expressed
Concentration: not given
Setting: derived from inhibition constants, unchanged parent 2230 nM
Direction: lower = stronger binding
Starting sequence: PafA, mature enzyme, eGFP fusion (Elizabethkingia meningoseptica, UniProt Q9KJX5); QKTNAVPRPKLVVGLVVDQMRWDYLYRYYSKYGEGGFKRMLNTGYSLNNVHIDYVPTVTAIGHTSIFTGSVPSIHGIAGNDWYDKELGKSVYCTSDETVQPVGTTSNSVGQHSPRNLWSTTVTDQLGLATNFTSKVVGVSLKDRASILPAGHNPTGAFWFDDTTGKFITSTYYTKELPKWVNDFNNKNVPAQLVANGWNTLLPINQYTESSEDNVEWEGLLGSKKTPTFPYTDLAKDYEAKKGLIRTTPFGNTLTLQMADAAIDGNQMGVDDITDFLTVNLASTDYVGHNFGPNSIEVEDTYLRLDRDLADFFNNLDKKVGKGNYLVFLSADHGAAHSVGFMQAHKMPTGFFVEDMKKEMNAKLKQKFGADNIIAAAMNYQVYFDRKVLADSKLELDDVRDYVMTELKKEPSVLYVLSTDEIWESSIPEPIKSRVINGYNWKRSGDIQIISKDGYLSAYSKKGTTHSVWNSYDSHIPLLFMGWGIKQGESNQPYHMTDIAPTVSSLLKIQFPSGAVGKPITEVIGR
Change | oxyanion analog dissociation constant
T301G | 1.81 µM
S134V | 1.91 µM
T164V | 2.23 µM
S330V | 3.15 µM
K135V | 2.25 µM
G243V | 2.43 µM
K225G | 1.99 µM
T163V | 1.72 µM

Further values, each from its own experiment
SMILES | target or system | test | test system | setting | endpoint | result
CNC(=O)c1ccc(-c2cnn3ccc(C(=O)N(C)c4ccc(Cl)c(C(=O)OC)c4)cc23)cc1 | Cryptosporidium parvum | qPCR | IFN-γ knockout mouse | 10 mg/kg, day 5 post treatment | faecal oocyst shedding | 4.1 log oocysts/g faeces
Cc1nc(Cc2cccc(C(F)(F)F)c2)sc1-c1ccc(C(N)=O)nc1 | HTR2A (Homo sapiens, UniProt P28223) | binding, radioligand binding |  | 10 µM | inhibition | 20.4%
